Published values gathered from unrelated publications.
Compare with care: the assays were run in different laboratories. Several values in a cell are separate wells, animals, samples, runs or records.
Target: Receptor tyrosine-protein kinase erbB-4 (ERBB4, Homo sapiens, UniProt Q15303)
Sequence of UniProt Q15303 (whole entry, looked up): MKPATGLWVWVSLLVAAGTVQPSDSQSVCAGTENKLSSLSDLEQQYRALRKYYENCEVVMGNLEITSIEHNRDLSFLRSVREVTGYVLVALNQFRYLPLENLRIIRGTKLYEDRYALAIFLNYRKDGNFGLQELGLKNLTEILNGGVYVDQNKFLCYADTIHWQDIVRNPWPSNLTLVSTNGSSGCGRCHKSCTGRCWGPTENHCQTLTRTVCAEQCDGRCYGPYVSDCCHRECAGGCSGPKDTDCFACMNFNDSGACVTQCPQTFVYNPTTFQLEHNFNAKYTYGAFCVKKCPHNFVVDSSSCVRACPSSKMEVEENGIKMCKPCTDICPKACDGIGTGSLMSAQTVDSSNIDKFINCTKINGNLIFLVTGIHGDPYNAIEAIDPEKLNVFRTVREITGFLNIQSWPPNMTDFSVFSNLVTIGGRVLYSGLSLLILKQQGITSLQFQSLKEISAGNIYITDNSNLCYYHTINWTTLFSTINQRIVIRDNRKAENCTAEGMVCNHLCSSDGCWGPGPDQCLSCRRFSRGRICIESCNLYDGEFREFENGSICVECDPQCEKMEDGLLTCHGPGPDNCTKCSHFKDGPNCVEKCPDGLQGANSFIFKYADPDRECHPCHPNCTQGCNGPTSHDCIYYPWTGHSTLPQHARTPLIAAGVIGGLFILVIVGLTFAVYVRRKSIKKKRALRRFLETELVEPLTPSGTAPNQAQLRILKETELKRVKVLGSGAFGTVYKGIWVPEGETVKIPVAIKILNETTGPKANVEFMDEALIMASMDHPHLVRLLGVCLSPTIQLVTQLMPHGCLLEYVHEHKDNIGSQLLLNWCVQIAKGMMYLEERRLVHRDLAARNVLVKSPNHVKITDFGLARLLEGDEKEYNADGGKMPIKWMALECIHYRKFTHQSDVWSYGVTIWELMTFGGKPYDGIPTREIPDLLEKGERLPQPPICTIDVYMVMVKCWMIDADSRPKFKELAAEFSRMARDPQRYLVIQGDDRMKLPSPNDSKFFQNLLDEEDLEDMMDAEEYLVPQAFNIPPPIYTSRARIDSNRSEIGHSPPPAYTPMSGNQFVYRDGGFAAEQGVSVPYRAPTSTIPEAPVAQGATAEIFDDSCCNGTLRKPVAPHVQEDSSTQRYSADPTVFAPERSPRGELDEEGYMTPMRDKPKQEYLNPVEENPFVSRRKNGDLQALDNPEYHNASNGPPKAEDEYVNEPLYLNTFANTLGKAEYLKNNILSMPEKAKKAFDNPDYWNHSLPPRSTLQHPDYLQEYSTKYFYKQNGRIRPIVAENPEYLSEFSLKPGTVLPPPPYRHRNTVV

SMILES	test	conditions	how to read	measurement	result
CNC(=O)C1CCN(c2cc(C)c(F)cc2NC(=O)c2ccc(-c3cc(O)ccc3C)c(C)c2)CC1	binding, competition with immobilised ligand	1 µM	–	remaining binding	51%
COc1ccc(NC(=O)Nc2ccc3c(c2)C(=O)N(C(C)CO)CC(C)C(CN(C)Cc2ccc4c(c2)OCO4)O3)cc1 (stereo not drawn)	binding, competition with immobilised ligand	10 µM	–	remaining binding	97%
CN1CC[C@@H](COc2cnc(C#N)cc2-c2ccn3nc(NC(=O)C4CC4)cc3c2)C1	enzyme activity, inhibitor	1 µM	–	inhibition	-11%
COc1cc(OC)c(F)c(/C=C/c2cnc3ccn(S(=O)(=O)c4cn(CCF)cn4)c3n2)c1F	–	100 nM	–	inhibition	6.1%
O=C=[N][Ru-4]123([n]4c5ccc(O)cc5c5c6c(c7cc(F)c[n+]1c7c54)C(=O)NC6=O)[S+]1CC[S+]2CC[S+]3CC1 (stereo not drawn)	enzyme activity	100 nM, human enzyme, added: 10 µM ATP	baseline: untreated	remaining activity	111%
CN1CCN(Cc2ccc(NC(=O)c3cccc(C#Cc4cnc(N)c5ncccc45)c3)cc2C(F)(F)F)CC1	cell-free assay, competition with immobilised ligand	0.5 µM	–	remaining binding	15%
CN1CCN(c2ccc(Nc3ncc(Cl)c(Nc4ccccc4P(C)(C)=O)n3)cc2Br)CC1	enzyme activity, inhibitor	0.1 µM	–	inhibition	4.4%
CC(C)=CC1OC(C)(C)C2C=C3C(=O)C(Cl)=CC(O)C3C3C(O)C4OC4C(=O)C132 (stereo not drawn)	cell-free assay, competition with immobilised ligand	10 µM	–	remaining binding	91%
CCn1cc(C(=O)O)c(=O)c2c(N)c(F)c(NC3CCCCC3)cc21	kinase activity	0.1 µM, added: ATP at Km	–	inhibition	9.5%
C=CC(=O)N1CCc2ccc(-n3c(=O)ccc4cnc5ccc(-c6cnn(C)c6)cc5c43)cc21	KINOMEscan	1 µM	baseline: DMSO control	remaining binding	78%
CCN1CCN(Cc2ccc(NC(=O)c3ccc(C)c(NC(=O)c4cncc(-c5cccs5)c4)c3)cc2C(F)(F)F)CC1	binding, competition with immobilised ligand	1 µM	–	remaining binding	1.9%
NC(=O)[C@@H](O)C[C@H]1CCc2sc3ncnc(O[C@H]4CC[C@H](N5CCOCC5)CC4)c3c21	enzyme activity, inhibitor	10 µM	–	inhibition	26%
Cc1cccc(O[C@H]2CCC[C@@H](C(C)CNCc3ccncc3)C2)c1 (relative stereo)	enzyme activity, inhibitor	1 µM	–	inhibition	14%
Cc1cnc2nc1Nc1cccc(c1)COC/C=C/COCc1cc(ccc1OCCN1CCOCC1)N2	binding	0.1 µM	–	remaining binding	81%
COc1c(OCCCN2CCOCC2)ccc2c1N=C(NC(=O)c1cnc(N)nc1)N1CCN=C21	kinase activity, inhibitor	1 µM	baseline: untreated control	remaining activity	119%
COc1cc(Nc2nccc(-c3cnn4nc(OC)ccc34)n2)cc(C(F)(F)F)c1	binding, competition with immobilised ligand	1 µM	–	remaining binding	93%
C=C1CCCCCCCCCC(CO)C1=O (stereo not drawn)	cell-free assay, competition with immobilised ligand	10 µM	–	remaining binding	91%
CNC(=O)C[C@H](Cc1ccc(C#N)cc1)NC(=O)c1cc(-c2ccc(CN[C@H](C)c3ccc(C)cc3)o2)ccc1Cl	enzyme activity, inhibitor	1 µM	–	activity vs control	99%
C=CC(=O)Nc1cccc(-c2cnc3[nH]cc(C(=O)NC(C)(C)C)c3n2)c1	kinase activity	0.1 µM	–	inhibition	6% and 3%
CN1CCN(Cc2ccc(-c3ccc(CO[C@H]4CCC[C@@H]4NC(=O)c4cc(-c5cnn(C)c5)cnc4N)cc3)cc2)CC1	enzyme activity, inhibitor	0.1 µM	–	inhibition	2%
C=CC(=O)N1CCCC(n2c(=O)c3ncccc3n(Cc3ccc(Oc4ccccc4)cc3)c2=O)C1 (stereo not drawn)	cell-free assay, competition with immobilised ligand	1 µM	–	remaining binding	90%

Repeated from above:
SMILES	test	conditions	how to read	measurement	result
CN1CCN(Cc2ccc(NC(=O)c3cccc(C#Cc4cnc(N)c5ncccc45)c3)cc2C(F)(F)F)CC1	cell-free assay, competition with immobilised ligand	0.5 µM	–	remaining binding	15%
